Measured values from different studies.
Every numbered part comes from another study and shows a few of its results, in no order. Changes are numbered by the printed parent chain.
UniProt P28335, sequence (whole entry, looked up): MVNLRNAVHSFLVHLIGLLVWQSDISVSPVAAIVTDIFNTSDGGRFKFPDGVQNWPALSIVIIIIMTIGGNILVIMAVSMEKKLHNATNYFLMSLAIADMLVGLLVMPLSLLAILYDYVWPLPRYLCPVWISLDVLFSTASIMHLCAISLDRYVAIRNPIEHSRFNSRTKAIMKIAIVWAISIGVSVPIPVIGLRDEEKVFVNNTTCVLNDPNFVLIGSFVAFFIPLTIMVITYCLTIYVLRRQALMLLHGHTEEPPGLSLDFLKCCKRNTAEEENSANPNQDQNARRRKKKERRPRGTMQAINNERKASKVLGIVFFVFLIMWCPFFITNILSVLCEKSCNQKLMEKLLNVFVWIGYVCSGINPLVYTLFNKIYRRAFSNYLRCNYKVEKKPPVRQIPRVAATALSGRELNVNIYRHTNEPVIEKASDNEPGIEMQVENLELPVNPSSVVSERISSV

Study 1
Target: Prothrombin, mature alpha-thrombin (F2, Homo sapiens, UniProt P00734)
Method: aptamer microarray, sandwich
Molecule type: DNA with 2'F-ANA
Sample: in vitro
Concentration: 200 nM
Notes: whole 15-mer aptamer, many near background
With: Cy3 exosite-II aptamer, 400 nM
Direction: higher = stronger binding
Sequence: GGTTGGTGTGGTTGG
| Modification | mean fluorescence intensity |
| --- | --- |
| 2'F-ANA at 1 4 6 7 9 12 13 14 15 | 54.9 a.u. |
| 2'F-ANA at 1 2 4 7 8 12 14 | 69 a.u. |
| 2'F-ANA at 2 6 7 9 11 13 14 15 | 140 a.u. |
| 2'F-ANA at 2 4 6 8 9 13 14 | 127 a.u. |
| 2'F-ANA at 2 5 9 10 11 12 | 52.5 a.u. |
| 2'F-ANA at 1 5 6 8 9 11 12 | 119 a.u. |
| 2'F-ANA at 1 3 4 5 7 8 10 11 12 13 14 15 | 122 a.u. |
| 2'F-ANA at 1 3 4 7 8 12 14 15 | 107 a.u. |

Study 2
Target: Phosphate system positive regulatory protein PHO4, full length, GST-tagged (PHO4, Saccharomyces cerevisiae, UniProt P07270, residues 1-312)
Method: competition protein-binding microarray
Molecule type: double-stranded DNA, one strand shown
Sample: in vitro
Concentration: 2 µM
Notes: whole 60-bp probe, lowest competitor level
With: Cbf1 competitor, 0.05 µM
Direction: higher = stronger binding
Constant ends, left off below: … GTCTTGATTCGCTTGACGCTGCTG
Target sequence (chain): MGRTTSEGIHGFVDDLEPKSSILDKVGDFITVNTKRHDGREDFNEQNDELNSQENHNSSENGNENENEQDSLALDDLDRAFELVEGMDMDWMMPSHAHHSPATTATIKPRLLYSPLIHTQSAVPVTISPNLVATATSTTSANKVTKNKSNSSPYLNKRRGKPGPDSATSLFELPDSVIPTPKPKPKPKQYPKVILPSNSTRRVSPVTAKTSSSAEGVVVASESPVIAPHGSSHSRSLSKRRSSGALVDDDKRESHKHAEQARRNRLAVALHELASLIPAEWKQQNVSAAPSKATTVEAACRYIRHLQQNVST
| Sequence | fluorescence intensity [a.u.] |
| --- | --- |
| AAATTACTAAGTTGTCACTAGACTTACCCCGTATGA | 2940 |
| CTAACGAAGGTTTGCTCCGTGGGTGACAAGCCAAGT | 5670 |
| CTAACGAAGGTTTGTCACCCGACTTACAAGCCAAGT | 3260 |
| TCAAAGAGTTGAGCGAACGTGACTCCTGGGCTGGCC | 8500 |
| GAGTGTTGTTGGGCGCACATGTCGATTTCATAATAG | 13600 |
| CGTCCTAGTGATTGTGCCGTGGGTGCCATGAGGAAG | 8090 |
| GTCGACCATTTTGCCACCGTGTCTGTGTGCTCGAGC | 6390 |
| GTCTTGTCTCATTGGCGCGTGGGTGTCCCCACTTCA | 10100 |

Further values, each from its own experiment
P1: PafA, mature enzyme, eGFP fusion (Elizabethkingia meningoseptica, UniProt Q9KJX5); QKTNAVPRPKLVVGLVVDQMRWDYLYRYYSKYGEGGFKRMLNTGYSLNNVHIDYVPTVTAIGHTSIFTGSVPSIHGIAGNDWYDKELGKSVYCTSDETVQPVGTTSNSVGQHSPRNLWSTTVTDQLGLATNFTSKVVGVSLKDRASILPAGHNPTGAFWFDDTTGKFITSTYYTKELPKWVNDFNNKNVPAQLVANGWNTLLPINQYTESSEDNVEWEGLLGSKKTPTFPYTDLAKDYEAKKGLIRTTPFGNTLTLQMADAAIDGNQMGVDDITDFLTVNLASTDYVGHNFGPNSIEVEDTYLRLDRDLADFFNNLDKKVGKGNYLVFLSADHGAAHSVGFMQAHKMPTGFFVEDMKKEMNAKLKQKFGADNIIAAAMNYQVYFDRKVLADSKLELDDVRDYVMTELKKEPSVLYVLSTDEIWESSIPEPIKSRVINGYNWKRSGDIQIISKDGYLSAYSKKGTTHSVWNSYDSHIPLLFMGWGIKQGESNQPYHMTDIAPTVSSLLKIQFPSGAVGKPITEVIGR
| Substance | target | assay | test system | conditions | scale | measurement | value |
| --- | --- | --- | --- | --- | --- | --- | --- |
| P1 I52G | vanadate, free oxyanion | microfluidic competitive inhibition | in vitro, cell-free expressed | not given, derived from inhibition constants, unchanged parent 676 nM | lower = stronger binding | oxyanion analog dissociation constant | 1.56 µM |
| Nc1cnc(N2CCc3cc(S(=O)(=O)Nc4c(F)cc(Cl)cc4F)cc(N4CCCC4=O)c32)nc1 | 5-hydroxytryptamine receptor 2C (HTR2C, Homo sapiens, UniProt P28335) | ligand displacement |  | 10 µM |  | inhibition | -15.8% |

Excerpt of the above (study 1):
| Modification | mean fluorescence intensity |
| --- | --- |
| 2'F-ANA at 2 6 7 9 11 13 14 15 | 140 a.u. |
